Measured values gathered from unrelated publications.
Each numbered part is a random draw from the data of one study; scales do not carry over between parts. Substitutions count along the parent as printed.

Series 1
Target: Histone acetyltransferase KAT6A, winged helix 2, GST fusion (KAT6A, Homo sapiens, UniProt Q92794, residues 85-181)
Method: protein binding microarray
Form: double-stranded DNA, one strand shown
Medium: in vitro
Concentration: not given
Setting: 8-mer, flanks averaged, mean of 2 arrays, mostly near background
Baseline: not given
Direction: higher = stronger binding
Quantity: E-score
Construct (chain): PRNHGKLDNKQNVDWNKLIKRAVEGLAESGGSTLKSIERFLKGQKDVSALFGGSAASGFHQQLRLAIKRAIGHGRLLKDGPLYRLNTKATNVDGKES
ACTTGACG: -0.113
GTTTTCCA: 0.00352
CACCCGAG: 0.133
CAAGCTCC: 0.0337
ACTGTTCT: 0.0756
AACGTGCC: -0.202
GCTTAAGC: 0.0734
GTTGCAAA: 0.178
ACTCACCA: -0.134
GAATATGC: -0.0653
CCAGCTAG: 0.122
GTGCCACA: -0.0715
GATAACAA: 0.144
CCGAATGC: 0.084
CAGTGCTA: 0.00361

Series 2
Target: CCNF, cyclin fold, Cln2 fusion (human)
Method: yeast growth competition, sequencing
Medium: yeast
Setting: weak parent motif
Baseline: not given
Direction: higher = stronger binding
Quantity: normalised enrichment score
Starting sequence: DNAH7 docking peptide (human); HELFQRLDFDNDG
D8A: -0.102
D12A: 0.768
L3A: -0.337
F9A: -0.5
H1A: -0.0616
E2A: 0.392

Series 3
Target: RNA binding protein fox-1 homolog 2, RRM domain, GST-SBP tag (RBFOX2, Homo sapiens, UniProt O43251-10, residues 100-194)
Method: RNA Bind-n-Seq
Form: RNA
Medium: in vitro
Concentration: 365 nM
Setting: natural RNA segment, single round, ends assumed
Baseline: no-protein control
Direction: higher = stronger binding
Quantity: RBNS enrichment (R)
Residues (chain): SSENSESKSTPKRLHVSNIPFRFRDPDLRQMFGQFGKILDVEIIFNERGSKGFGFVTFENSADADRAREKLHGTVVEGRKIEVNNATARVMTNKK
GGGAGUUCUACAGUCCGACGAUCCAGAAGAGUAGAACAUACUGGCAGAGUUUUACAUUAGGAUAUUGCUGUCUUUUCUACGAUAGAGAAUCUUUAUUUGUAAGGAAUGUUUCAGGCCUAGACAUACAUGAAACUGGAAUUCUCGGGUGCCAA: 0.358
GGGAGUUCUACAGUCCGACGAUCUCUGCUACAUUUCUGUAAGAGAGUUAAGUCUGAGAACUAGUCUCGCAAGUGUAUCUGUUAGUACACUCUGCAAGAGGACUGGACUGCUGGCCUAGGUAUAUGGAUCUCACUGGAAUUCUCGGGUGCCAA: 0.312
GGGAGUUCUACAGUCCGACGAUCGUCUGAUUGUACCCUGGUGGCAUGAUCAGUUGUCUUGUAGCUGUCCCCCGCUCCAUAGUUUACAAUGCAAAUCUGUCUCAAGAUCUUCACUUCGCUGCUGCUGAGAGCAGUGGAAUUCUCGGGUGCCAA: 0.93
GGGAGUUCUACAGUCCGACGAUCAGUGGGGAGGGACAAGAGAUUCUGGAAAGUGAGCCUCCCCAUACCCUCUUUUGUUCUCCCCACCCUGAUACUUGUUAUUAAGAAAUGAAUAAAAUAAACUCACUUUUUUCUGGAAUUCUCGGGUGCCAA: 0.553
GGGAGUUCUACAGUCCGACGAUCUGUGGUAGGCCUUUUAACAUUUUGUUCUUACACAUACAGUUUUAUGCUCUUUUUUACUCAUUGAAAUGUCAUGUGUUGUCUGAUUGGCUUGUAGAAUUGUUAUAGAUUACUGGAAUUCUCGGGUGCCAA: 0.46
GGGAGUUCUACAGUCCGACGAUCCUUAUGCUAACCACUAUUUUAAAAUGAAAGACAAAGCUCUUUCAGAAGUUUCUCUUGGCUGUUUUAAAAGACAAUUACUGAACAAUAAAAUCCUCUUCCCUGCCCACCCUUGGAAUUCUCGGGUGCCAA: 0.596
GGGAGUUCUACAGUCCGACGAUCUUGUAGGGCCUUGCUGCCAGGGGGCAGGGAUGCUUUCCAGCCUGCAGCAACAGAACACUUGACCUUAAAAGUCUCUUCUGGUCUUUGGAUUAGAAAAGGCUUAUGUUAGCUGGAAUUCUCGGGUGCCAA: 0.194
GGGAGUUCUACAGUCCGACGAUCGGAGGGAUCUGAGCGCAGGAAGACGCAGAACAACAGAAAUAGCCGCCCCUCCCCGCCCACUGUGCCUGUUGGCCUAUCAUAGAUCUCUAUGUUCUUGACUUUGUCUCUCCUGGAAUUCUCGGGUGCCAA: 0.364

Mixed results
PhoQ, residues 284 288 289 292 302 303 ALVSVA — fold induction (PhoP, residues 12 14 15 18 19 STHWV (Escherichia coli, UniProt P23836); Sort-seq, measured: YFP reporter; E. coli; PhoQ-PhoP variant library, with: 10 µM Mg2+; baseline: high Mg2+ state, higher = stronger signaling): 1.79

Some of these lines once more (series 3):
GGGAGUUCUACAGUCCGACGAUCUCUGCUACAUUUCUGUAAGAGAGUUAAGUCUGAGAACUAGUCUCGCAAGUGUAUCUGUUAGUACACUCUGCAAGAGGACUGGACUGCUGGCCUAGGUAUAUGGAUCUCACUGGAAUUCUCGGGUGCCAA: 0.312
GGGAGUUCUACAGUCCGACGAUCGUCUGAUUGUACCCUGGUGGCAUGAUCAGUUGUCUUGUAGCUGUCCCCCGCUCCAUAGUUUACAAUGCAAAUCUGUCUCAAGAUCUUCACUUCGCUGCUGCUGAGAGCAGUGGAAUUCUCGGGUGCCAA: 0.93
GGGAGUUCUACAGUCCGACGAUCGGAGGGAUCUGAGCGCAGGAAGACGCAGAACAACAGAAAUAGCCGCCCCUCCCCGCCCACUGUGCCUGUUGGCCUAUCAUAGAUCUCUAUGUUCUUGACUUUGUCUCUCCUGGAAUUCUCGGGUGCCAA: 0.364
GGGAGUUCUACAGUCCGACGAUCCUUAUGCUAACCACUAUUUUAAAAUGAAAGACAAAGCUCUUUCAGAAGUUUCUCUUGGCUGUUUUAAAAGACAAUUACUGAACAAUAAAAUCCUCUUCCCUGCCCACCCUUGGAAUUCUCGGGUGCCAA: 0.596
